Measurements gathered from unrelated publications.
A part holds a random share of what one study measured. “And” joins repeats or separate records; there may be more than shown.
UniProt P23443, sequence (whole entry, looked up): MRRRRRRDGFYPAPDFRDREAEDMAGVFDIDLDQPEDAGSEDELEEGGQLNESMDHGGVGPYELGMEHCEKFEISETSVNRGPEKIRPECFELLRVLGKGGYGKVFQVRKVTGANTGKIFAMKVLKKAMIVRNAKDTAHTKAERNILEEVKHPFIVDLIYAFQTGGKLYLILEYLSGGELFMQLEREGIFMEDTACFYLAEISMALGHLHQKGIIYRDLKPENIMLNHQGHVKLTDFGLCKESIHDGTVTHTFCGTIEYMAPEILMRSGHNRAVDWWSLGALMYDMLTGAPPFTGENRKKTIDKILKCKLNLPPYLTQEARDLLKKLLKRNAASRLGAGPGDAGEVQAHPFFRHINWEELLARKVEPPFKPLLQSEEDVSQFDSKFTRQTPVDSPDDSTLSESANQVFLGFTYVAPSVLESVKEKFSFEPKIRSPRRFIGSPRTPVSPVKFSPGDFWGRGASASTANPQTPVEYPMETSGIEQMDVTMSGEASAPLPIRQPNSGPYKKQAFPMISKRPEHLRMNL
UniProt O00444, sequence (whole entry, looked up): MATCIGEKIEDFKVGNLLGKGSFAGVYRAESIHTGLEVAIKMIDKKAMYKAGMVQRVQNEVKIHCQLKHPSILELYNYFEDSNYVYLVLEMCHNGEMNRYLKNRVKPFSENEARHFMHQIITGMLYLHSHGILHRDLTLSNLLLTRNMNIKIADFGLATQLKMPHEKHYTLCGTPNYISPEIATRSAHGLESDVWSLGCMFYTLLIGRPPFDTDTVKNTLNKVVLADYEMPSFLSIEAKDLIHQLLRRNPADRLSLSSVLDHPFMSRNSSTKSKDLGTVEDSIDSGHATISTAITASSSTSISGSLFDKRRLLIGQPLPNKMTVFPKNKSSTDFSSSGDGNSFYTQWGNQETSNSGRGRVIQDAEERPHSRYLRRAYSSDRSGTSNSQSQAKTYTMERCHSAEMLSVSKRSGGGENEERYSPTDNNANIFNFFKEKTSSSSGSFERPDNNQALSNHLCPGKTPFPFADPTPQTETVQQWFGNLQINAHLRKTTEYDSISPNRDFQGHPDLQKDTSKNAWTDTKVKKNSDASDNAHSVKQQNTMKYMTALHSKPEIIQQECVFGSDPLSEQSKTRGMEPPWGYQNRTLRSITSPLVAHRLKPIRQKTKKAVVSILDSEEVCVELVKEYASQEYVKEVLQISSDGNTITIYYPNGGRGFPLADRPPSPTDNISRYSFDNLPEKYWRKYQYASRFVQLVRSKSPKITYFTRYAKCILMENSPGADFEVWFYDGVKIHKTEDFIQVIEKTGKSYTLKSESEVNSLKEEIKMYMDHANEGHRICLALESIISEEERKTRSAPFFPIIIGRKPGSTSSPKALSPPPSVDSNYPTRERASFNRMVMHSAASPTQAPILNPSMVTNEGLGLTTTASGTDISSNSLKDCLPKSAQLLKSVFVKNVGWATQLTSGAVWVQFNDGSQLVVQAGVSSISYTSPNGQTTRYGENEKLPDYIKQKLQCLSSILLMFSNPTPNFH
UniProt P49336, sequence (whole entry, looked up): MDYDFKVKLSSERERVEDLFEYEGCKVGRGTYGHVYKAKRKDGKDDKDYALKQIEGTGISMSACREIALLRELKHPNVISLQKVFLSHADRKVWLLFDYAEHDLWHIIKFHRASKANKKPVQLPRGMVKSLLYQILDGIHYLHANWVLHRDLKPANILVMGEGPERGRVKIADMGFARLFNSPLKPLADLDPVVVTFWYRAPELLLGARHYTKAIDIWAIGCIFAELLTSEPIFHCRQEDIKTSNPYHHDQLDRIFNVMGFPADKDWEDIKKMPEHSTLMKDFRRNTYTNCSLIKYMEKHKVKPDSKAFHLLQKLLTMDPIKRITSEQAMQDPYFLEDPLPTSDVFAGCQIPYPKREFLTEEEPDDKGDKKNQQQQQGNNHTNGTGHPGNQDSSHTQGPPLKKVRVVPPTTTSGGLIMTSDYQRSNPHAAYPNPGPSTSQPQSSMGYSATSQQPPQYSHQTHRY
UniProt Q15746, sequence (whole entry, looked up): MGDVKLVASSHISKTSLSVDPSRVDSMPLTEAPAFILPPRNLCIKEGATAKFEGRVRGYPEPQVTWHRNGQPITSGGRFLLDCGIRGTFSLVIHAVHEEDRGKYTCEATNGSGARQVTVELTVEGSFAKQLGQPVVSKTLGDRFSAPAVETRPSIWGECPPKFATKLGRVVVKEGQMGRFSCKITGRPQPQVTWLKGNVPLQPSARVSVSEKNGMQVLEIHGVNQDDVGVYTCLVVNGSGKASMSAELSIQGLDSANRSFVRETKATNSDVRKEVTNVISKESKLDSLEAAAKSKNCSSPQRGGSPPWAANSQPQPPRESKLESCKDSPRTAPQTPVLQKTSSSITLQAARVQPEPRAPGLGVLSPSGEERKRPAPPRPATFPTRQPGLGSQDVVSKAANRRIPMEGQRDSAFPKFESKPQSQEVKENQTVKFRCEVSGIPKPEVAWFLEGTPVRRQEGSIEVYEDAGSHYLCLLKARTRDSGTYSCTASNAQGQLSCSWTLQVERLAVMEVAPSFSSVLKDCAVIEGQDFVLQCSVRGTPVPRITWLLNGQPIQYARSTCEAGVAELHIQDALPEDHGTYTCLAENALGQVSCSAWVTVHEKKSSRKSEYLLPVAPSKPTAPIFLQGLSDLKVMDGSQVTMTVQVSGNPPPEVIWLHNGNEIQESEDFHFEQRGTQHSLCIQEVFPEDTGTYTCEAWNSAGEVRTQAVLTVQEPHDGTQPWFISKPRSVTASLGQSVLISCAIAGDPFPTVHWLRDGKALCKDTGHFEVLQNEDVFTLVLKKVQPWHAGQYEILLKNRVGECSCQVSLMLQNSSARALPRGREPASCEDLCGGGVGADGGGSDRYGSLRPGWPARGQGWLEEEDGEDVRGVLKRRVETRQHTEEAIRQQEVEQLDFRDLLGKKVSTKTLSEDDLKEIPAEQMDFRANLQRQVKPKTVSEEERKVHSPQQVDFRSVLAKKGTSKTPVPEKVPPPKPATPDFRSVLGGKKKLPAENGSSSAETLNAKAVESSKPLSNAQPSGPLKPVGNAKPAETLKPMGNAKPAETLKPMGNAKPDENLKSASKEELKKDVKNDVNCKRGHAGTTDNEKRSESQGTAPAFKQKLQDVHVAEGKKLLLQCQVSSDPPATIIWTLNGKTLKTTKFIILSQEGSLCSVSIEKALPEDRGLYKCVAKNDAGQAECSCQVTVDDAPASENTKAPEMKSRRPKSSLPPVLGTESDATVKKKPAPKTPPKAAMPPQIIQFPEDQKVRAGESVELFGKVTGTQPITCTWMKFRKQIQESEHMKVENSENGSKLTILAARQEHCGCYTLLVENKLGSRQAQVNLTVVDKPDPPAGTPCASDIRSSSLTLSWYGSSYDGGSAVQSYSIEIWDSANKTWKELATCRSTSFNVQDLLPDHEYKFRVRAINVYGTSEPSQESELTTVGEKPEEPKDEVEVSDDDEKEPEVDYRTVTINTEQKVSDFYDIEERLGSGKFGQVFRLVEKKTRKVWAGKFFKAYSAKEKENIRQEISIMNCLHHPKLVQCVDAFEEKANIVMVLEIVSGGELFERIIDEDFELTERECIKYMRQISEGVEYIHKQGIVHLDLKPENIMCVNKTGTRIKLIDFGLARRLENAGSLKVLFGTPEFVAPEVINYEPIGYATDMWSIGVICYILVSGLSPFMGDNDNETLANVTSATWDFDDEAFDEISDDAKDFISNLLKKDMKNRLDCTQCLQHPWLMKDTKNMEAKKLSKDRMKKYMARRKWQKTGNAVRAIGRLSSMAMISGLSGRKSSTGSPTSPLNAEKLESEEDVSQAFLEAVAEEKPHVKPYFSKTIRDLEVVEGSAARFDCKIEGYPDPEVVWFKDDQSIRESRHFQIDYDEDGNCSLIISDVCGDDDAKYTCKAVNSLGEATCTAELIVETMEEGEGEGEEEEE
UniProt Q6P3R8, sequence (whole entry, looked up): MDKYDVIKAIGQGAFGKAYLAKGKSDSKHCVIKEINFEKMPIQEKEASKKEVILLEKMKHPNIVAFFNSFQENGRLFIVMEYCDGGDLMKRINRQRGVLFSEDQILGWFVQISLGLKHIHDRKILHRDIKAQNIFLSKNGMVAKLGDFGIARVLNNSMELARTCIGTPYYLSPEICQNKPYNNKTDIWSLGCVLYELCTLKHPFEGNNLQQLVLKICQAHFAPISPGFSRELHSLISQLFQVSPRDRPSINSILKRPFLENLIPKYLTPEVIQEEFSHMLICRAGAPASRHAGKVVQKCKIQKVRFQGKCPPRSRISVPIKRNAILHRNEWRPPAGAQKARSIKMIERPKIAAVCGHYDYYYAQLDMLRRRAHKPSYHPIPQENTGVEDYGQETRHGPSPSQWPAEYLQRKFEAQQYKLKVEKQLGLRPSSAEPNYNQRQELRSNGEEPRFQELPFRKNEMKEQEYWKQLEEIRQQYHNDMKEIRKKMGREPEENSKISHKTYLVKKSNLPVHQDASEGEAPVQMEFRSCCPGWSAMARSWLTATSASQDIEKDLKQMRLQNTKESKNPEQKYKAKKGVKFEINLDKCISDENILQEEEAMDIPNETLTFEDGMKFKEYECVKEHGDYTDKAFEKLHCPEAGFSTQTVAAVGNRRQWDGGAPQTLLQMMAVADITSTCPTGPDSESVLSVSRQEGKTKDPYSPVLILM
UniProt Q9UQB9, sequence (whole entry, looked up): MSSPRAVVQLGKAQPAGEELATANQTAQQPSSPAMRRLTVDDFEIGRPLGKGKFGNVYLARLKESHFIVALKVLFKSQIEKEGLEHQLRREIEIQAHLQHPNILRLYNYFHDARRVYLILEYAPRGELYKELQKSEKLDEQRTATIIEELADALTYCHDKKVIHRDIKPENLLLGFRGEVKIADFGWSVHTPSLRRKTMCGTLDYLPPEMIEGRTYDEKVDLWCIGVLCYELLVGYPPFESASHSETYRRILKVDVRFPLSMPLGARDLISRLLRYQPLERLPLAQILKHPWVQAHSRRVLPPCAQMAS

Study 1
Structure (SMILES): c1ccc(-c2n[nH]c3c2oc2ccccc23)cc1
Read-out: enzyme activity
Mode: inhibitor
Concentration: 0.5 µM
Baseline: control
BMX (Homo sapiens, UniProt P51813) — remaining activity: 106%.
NUAK1 (Homo sapiens, UniProt O60285) — remaining activity: 96.2%.
For PAK2 (Homo sapiens, UniProt Q13177): remaining activity read 92.3%.
The remaining activity was 102% (GRK6 (Homo sapiens, UniProt P43250)).
PRKCE (Homo sapiens, UniProt Q02156) — remaining activity: 86%.
It gave 104% for remaining activity (EPHA7 (Homo sapiens, UniProt Q15375)).
The remaining activity was 94.5% (SRPK3 (Homo sapiens, UniProt Q9UPE1)).
SGK1 (Homo sapiens, UniProt O00141) — remaining activity: 101%.
It gave 12.1% for remaining activity (FLT3 (Homo sapiens, UniProt P36888)).
For PIM2 (Homo sapiens, UniProt Q9P1W9): remaining activity read 104%.
It gave 99.9% for remaining activity (RPS6KB1 (Homo sapiens, UniProt P23443)).
The remaining activity was 91.4% (GSK3A (Homo sapiens, UniProt P49840)).
The remaining activity was 85.5% (FGFR4 (Homo sapiens, UniProt P22455)).
It gave 83.1% for remaining activity (EPHB2 (Homo sapiens, UniProt P29323)).
For RPS6KA1 (Homo sapiens, UniProt Q15418): remaining activity read 100%.
It gave 96.7% for remaining activity (Aurora kinase C (AURKC, Homo sapiens, UniProt Q9UQB9)).
The remaining activity was 104% (GRK2 (Homo sapiens, UniProt P25098)).
It gave 92.6% for remaining activity (CSK (Homo sapiens, UniProt P41240)).
It gave 99.9% for remaining activity (PRKCG (Homo sapiens, UniProt P05129)).
MYLK (Homo sapiens, UniProt Q15746) — remaining activity: 86.1%.

Study 2
Cell line: normal-adjacent epithelium patient-derived organoids sample F
Method: CellTiter-Glo
Concentration: 1 µM
Baseline: DMSO
`CC(=O)NCC(=O)N1[C@@H]2CC[C@H]1c1ccc(Nc3ncc(C(F)(F)F)c(NC4CCC4)n3)cc12` gave a viability of 9% and 7.7%.
With `COc1ccc2c(O[C@@H]3C[C@H]4C(=O)N[C@]5(C(=O)O)CC5/C=C\CCCCC[C@H](NC(=O)OC5CCCC5)C(=O)N4C3)cc(-c3csc(NC(=O)C(C)C)n3)nc2c1C` (stereo partly shown) the viability was 95.1% and 111%.
`Cc1ccc(NC(=O)Nc2cc(C(F)(F)F)ccc2F)cc1Nc1ccc2c(c1)NC(=O)/C2=C\c1ccc[nH]1` gave a viability of 64.1%.
The viability of `COc1cc(Nc2nccc(-c3cnn4nc(OC)ccc34)n2)cc(C(F)(F)F)c1` is reported as 60.1%.
With `COCc1nc2cnc3cc(-c4c(C)noc4C)c(OC[C@H]4CCNC4)cc3c2n1[C@H](C)c1ccccc1` the viability was 54.3%.
`O=C(NCc1ccccc1)c1ccc(S(=O)(=O)NCc2ccccc2)cc1` has a viability of 99.4% and 115%.
The viability of `CCNC(=O)c1cc2c(N3CCOC[C@H]3C)ccnc2n1C` is reported as 104% and 98.1%.
`COc1cccc2c1C(=O)c1c(O)c3c(c(O)c1C2=O)C[C@@](O)(C(=O)CO)C[C@@H]3O[C@H]1C[C@H](N)[C@H](O)[C@H](C)O1` has a viability of 16.9%.
`CN1CCN(Cc2cc(NC(=O)c3ccc4c(c3)CN(c3ccccc3)CC4)cc(C(F)(F)F)c2)CC1` has a viability of 84.5% and 70.5%.
With `CCC(=NO)C(C)=Cc1ccc(F)c(C)c1` the viability was 103% and 113%.
For `CCCCNc1ncc(-c2ccc(CN3CCOCC3)cn2)c(NC2CCC(O)CC2)n1` (stereo not shown), the viability was 145% and 108%.
`Cn1cc(-c2ccc3occ(-c4cccc(-c5ccncc5)c4)c3n2)cn1` gave a viability of 101%.
`Cc1cc2c(-c3ccco3)cnc(N[C@@H]3CCN(C)C[C@H]3C(=O)NC3CCCCC3)c2[nH]c1=O` gave a viability of 68.5%.
The viability of `CCC(=N\O)/C(C)=C/c1ccc(F)cc1` is reported as 110% and 104%.
`CN(C)C(=O)Cn1cc(-c2ccc(-c3nnc4ccccn34)cc2)cn1` gave a viability of 209% and 148%.
`COc1cc(Nc2ncc3c(n2)-c2ccc(Cl)cc2C(c2c(F)cccc2OC)=NC3)ccc1C(=O)O` has a viability of 8%.

Study 3
Compound: O=C(Nc1cnn(-c2csc(C(=O)NC3COC3)c2)c1)Nc1c(F)cccc1Cl
Read-out: enzyme activity
Concentration: 5 µM
RPS6KB1 (Homo sapiens, UniProt P23443); baseline: untreated control — remaining activity: 97.6%.
The remaining activity was 95.1% (TSSK2 (Homo sapiens, UniProt Q96PF2); baseline: untreated control).
The remaining activity was 98.1% (PRKD2 (Homo sapiens, UniProt Q9BZL6); baseline: untreated control).
For PIM3 (Homo sapiens, UniProt Q86V86); baseline: untreated control: remaining activity read 73.1%.
For TESK2 (Homo sapiens, UniProt Q96S53); inhibitor: remaining activity read 80.1%.
For MARK1 (Homo sapiens, UniProt Q9P0L2); baseline: untreated control: remaining activity read 108%.
It gave 94.4% for remaining activity (IGF1R (Homo sapiens, UniProt P08069); baseline: untreated control).
The remaining activity was 98.5% (MAP3K1 (Homo sapiens, UniProt Q13233); baseline: untreated control).
PAK4 (Homo sapiens, UniProt O96013); baseline: untreated control — remaining activity: 105%.
It gave 87.5% for remaining activity (STK10 (Homo sapiens, UniProt O94804); baseline: untreated control).
It gave 87.9% for remaining activity (NEK5 (Homo sapiens, UniProt Q6P3R8); baseline: untreated control).
PRKG2 (Homo sapiens, UniProt Q13237); baseline: untreated control — remaining activity: 99.4%.
The remaining activity was 98.8% (Cyclin-dependent kinase 8, with cyclin C (CDK8, Homo sapiens, UniProt P49336); baseline: untreated control).
PLK4 (Homo sapiens, UniProt O00444); baseline: untreated control — remaining activity: 83.8%.

Study 4
SMILES: CC(C)n1cnc(-c2ccc(F)cc2)c1-c1ncc(C(=O)Nc2ccc(N3CCN(C)CC3)cc2)[nH]1
Method: Phase 2a trial
Host: idiopathic pulmonary fibrosis patients
It gave 0% for “patients with adverse events” (item: weight increased; 60 mg once daily, grade 2 maximum intensity).
item: reticulocyte count increased; dose not given, grade 4 maximum intensity, all arms — “patients with adverse events”: 0%.
item: oral herpes; oral, 60 mg once daily, grade 2 maximum intensity — “patients with adverse events”: 0%.
For item: bile acids increased; 60 mg once daily, grade 4 maximum intensity: “patients with adverse events” read 0%.
For item: muscular weakness; dose not given, grade 2 maximum intensity, all arms: “patients with adverse events” read 0%.
For item: muscular weakness; 60 mg once daily, grade 4 maximum intensity: “patients with adverse events” read 0%.
For item: tri-iodothyronine increased; dose not given, grade 5 maximum intensity, all arms: “patients with adverse events” read 0%.
For item: blood alkaline phosphatase increased; 30 mg once daily, grade 5 maximum intensity: “patients with adverse events” read 0%.
For item: bile acids increased; dose not given, grade 4 maximum intensity, all arms: “patients with adverse events” read 0%.
For item: chest discomfort; 60 mg once daily, grade 4 maximum intensity: “patients with adverse events” read 0%.
The “patients with adverse events” was 0% (item: weight increased; 30 mg once daily, grade 4 maximum intensity).

Some of these lines once more (study 3):
The remaining activity was 95.1% (TSSK2 (Homo sapiens, UniProt Q96PF2); baseline: untreated control).
It gave 94.4% for remaining activity (IGF1R (Homo sapiens, UniProt P08069); baseline: untreated control).
It gave 87.9% for remaining activity (NEK5 (Homo sapiens, UniProt Q6P3R8); baseline: untreated control).
The remaining activity was 98.5% (MAP3K1 (Homo sapiens, UniProt Q13233); baseline: untreated control).
